Results of several laboratories.
A part holds a random share of what one study measured. Positions count from the first letter of the parent shown.

Sample 1
Target: CCNA1, cyclin fold, Cln2 fusion (human)
Method: yeast growth competition, sequencing
Medium: yeast
Notes: weak parent motif
Relative to: not given
Direction: higher = stronger binding
Starting sequence: SLBP docking peptide (human); ARYKRKLLINDFG; partner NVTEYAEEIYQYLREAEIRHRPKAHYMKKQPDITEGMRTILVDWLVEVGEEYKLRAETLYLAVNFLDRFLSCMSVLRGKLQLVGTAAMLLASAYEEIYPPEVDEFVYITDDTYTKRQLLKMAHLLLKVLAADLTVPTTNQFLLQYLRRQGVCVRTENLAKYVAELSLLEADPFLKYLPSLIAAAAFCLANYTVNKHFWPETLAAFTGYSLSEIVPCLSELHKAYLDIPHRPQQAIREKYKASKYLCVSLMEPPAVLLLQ
Variant	normalised enrichment score
F12D	0.246
L7G	0.304
L7H	0.189
Y3H	0.261
A1K	0.311
I9N	0.306
Y3F	0.362
L8S	0.102
K6M	0.0371
K4Y	0.32
G13S	-0.0814
A1S	0.664
Y3T	0.313
K6W	0.545
L7K	0.242
I9P	0.505
Y3E	0.378
A1T	0.676
D11L	0.0358
D11H	0.51
D11M	0.362
G13P	0.455
N10Q	0.355
I9H	0.366
R5S	0.606

Sample 2
Target: ABI1, truncated, D143A, DHFR fusion (Arabidopsis thaliana)
Method: DHFR PCA, deep sequencing
Medium: yeast
Notes: methotrexate growth selection, single substitutions
Added: (+)-ABA 0.39 µM
Relative to: wild-type fitted maximum
Direction: higher = stronger binding
Starting sequence: PYL1, truncated, DHFR fusion (Arabidopsis thaliana); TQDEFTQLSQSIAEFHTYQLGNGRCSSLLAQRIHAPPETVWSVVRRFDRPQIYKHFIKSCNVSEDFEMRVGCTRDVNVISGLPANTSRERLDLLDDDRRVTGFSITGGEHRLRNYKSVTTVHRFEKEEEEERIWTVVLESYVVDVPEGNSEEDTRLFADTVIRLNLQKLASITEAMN
Variant	relative binding score [%]
N114D	20.1
T154G	-20.5
D95Q	-11.5
V44I	28.1
W41N	-2.17
L93M	41.2
C25N	-10.6
D95C	-10.1
T39H	15.9
V43C	4.41
V161F	26.7
V62K	-4.17
G107V	-7.76
F157L	9.51
A13R	48.5
A84H	59.6
E38K	-2.54
E128W	8.84

Sample 3
Target: Histone acetyltransferase KAT6A, winged helix 1, GST fusion (KAT6A, Homo sapiens, UniProt Q92794, residues 1-85)
Method: protein binding microarray
Form: double-stranded DNA, one strand shown
Medium: in vitro
Tested at: not given
Notes: 8-mer, flanks averaged, mean of 2 arrays, mostly near background
Relative to: not given
Direction: higher = stronger binding
Target sequence (chain): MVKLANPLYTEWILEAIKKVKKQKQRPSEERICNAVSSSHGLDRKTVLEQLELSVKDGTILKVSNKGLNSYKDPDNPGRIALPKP
Oligonucleotide	E-score
AGATGGAA	-0.205
CGATATTC	0.136
ACACAATA	-0.183
ACGCTTAA	-0.0741
AGCGTACG	0.332
ACCGGGAT	0.254
AACACGTG	-0.0923
AATTCATG	-0.192
CGTAAGCA	-0.0659
AGGTACAC	-0.0535
AGCTCCAG	-0.197
GTAAAAAC	-0.193
AGAATCTA	-0.139
CCCTTCCC	-0.143
GGCATCCA	-0.141
GCATCTCC	0.141
GAAAGCTA	-0.0871
GGTGCACC	-0.114
ATTCTATG	-0.163
GGAACCCA	-0.134
AATCGGGA	0.0926
GAATTTAA	-0.171
AGTAGTGA	-0.147
AACTCCGC	0.0575

Sample 4
Target: NFE2L1, bZIP domain (human)
Method: DHFR protein complementation
Medium: yeast
Notes: single substitutions, most at no-binding floor
Relative to: wild-type JUN-FOS pair
Direction: higher = stronger binding
Starting sequence: JUN, bZIP domain (human); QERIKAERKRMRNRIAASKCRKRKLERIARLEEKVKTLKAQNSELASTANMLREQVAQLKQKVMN; partner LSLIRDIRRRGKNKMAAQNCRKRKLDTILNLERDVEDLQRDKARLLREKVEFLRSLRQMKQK
Variant	binding fitness
A49H	-1.41 natural log
K39E	-1.35 natural log
I28Q	-1.47 natural log
K39A	-1.44 natural log
A57G	-1.25 natural log
K36E	-1.3 natural log
M51H	-1.41 natural log
S43K	-1.49 natural log
K36G	-1.49 natural log
M51T	-1.33 natural log
L52A	-1.45 natural log
A40W	-1.46 natural log
L45K	-1.5 natural log
I28S	-1.42 natural log
V35G	-1.46 natural log
E32P	-1.56 natural log
A29P	-1.52 natural log
I28E	-1.56 natural log
E54H	-1.57 natural log
N42V	-1.48 natural log
A40C	-1.58 natural log
L45F	-1.58 natural log
Q58S	-1.46 natural log
E44M	-1.3 natural log
S47H	-1.33 natural log

Sample 5
Target: Sal-like protein 4, full length isoform B (SALL4, Homo sapiens, UniProt Q9UJQ4-2, residues 1-616)
Method: universal PBM
Form: double-stranded DNA, one strand shown
Medium: in vitro
Tested at: not given
Notes: 8-mer, flanks averaged, mean of replicates
Direction: higher = stronger binding
Oligonucleotide	E-score
CACTTGGG	0.0365
GTTGCACA	-0.0412
CATCTCAA	0.259
CAGATCGC	-0.22
CCTTAGGA	-0.0207
AAAGAGAT	0.0579
GGTCGGAC	-0.332
AAAGGGAA	0.0876
CGCTTGAA	-0.0121
AACGCCCT	-0.0214
CCAAGTGG	-0.15
CCGGCGAG	-0.296
ATTCGAAC	0.152
GGGTTACC	-0.322
GTCCAACA	-0.151
CGCTGAAA	-0.178
CTCCGGTA	-0.1
GTTGAGTA	0.179

For quick reference, copied from above (sample 3):
Oligonucleotide	E-score
AGGTACAC	-0.0535
AGCTCCAG	-0.197
GTAAAAAC	-0.193
AGAATCTA	-0.139
CCCTTCCC	-0.143
GGCATCCA	-0.141
